Measurements pooled from the literature.
Every numbered part comes from another study and shows a few of its results, in no order. Substitutions count along the parent as printed.

Study 1
Target: Prothrombin, mature alpha-thrombin (F2, Homo sapiens, UniProt P00734)
Method: aptamer microarray, sandwich
Form: DNA with 2'F-ANA
Medium: in vitro
Tested at: 200 nM
Notes: whole 15-mer aptamer, many near background
Added: Cy3 exosite-II aptamer, 400 nM
Reading: higher = stronger binding
Strand: GGTTGGTGTGGTTGG
Modification	mean fluorescence intensity
2'F-ANA at 5 6 7 8 9 11 12 13 14	47.1 a.u.
2'F-ANA at 1 2 3 4 5 7 8 10 11 12 14	50 a.u.
2'F-ANA at 2 3 5 6 8 10 11 12 13	54.4 a.u.
2'F-ANA at 1 2 4 5 7 8 11 15	52.8 a.u.
2'F-ANA at 1 2 5 7 9	58.6 a.u.
2'F-ANA at 1 2 4 5 8 11 12 15	80.8 a.u.
2'F-ANA at 1 2 4 7	161 a.u.
2'F-ANA at 1 4 9 11 12 15	201 a.u.
2'F-ANA at 2 4 7 8 10 13 14 15	62.7 a.u.
2'F-ANA at 5 6 8 10 13 14	48.1 a.u.
2'F-ANA at 1 3 4 6 8 9	222 a.u.
2'F-ANA at 2 4 5 6 8 10 13 14 15	46.8 a.u.
2'F-ANA at 1 2 4 5 6 7 9 11	53.5 a.u.
2'F-ANA at 3 5 6 7 10 12 14 15	53.2 a.u.
2'F-ANA at 1 5 6 10 13 14	65.4 a.u.
2'F-ANA at 1 6 9 10 12 15	71.7 a.u.
2'F-ANA at 1 5 6 7 8 11 12 13 14 15	48.3 a.u.
2'F-ANA at 1 2 3 4 7 11 12 13 14 15	72.1 a.u.

Study 2
Target: CCNB3, cyclin fold, Cln2 fusion (human)
Method: yeast growth competition, sequencing
Medium: yeast
Notes: weak parent motif
Reference: not given
Reading: higher = stronger binding
Starting sequence: DBF4 docking peptide (human); DDIVSKLVFDFVE; partner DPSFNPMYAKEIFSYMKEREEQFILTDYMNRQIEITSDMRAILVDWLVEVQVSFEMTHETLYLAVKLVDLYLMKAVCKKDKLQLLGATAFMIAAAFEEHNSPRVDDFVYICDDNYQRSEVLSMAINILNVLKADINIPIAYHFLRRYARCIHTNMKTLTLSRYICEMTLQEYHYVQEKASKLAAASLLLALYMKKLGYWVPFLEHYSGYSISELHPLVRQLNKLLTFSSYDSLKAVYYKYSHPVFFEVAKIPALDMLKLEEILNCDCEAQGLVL
Variant	normalised enrichment score
DDIVSKLVADFVE [F9A]	-0.0866
DDIVSKLVFDFVA [E13A]	0.43
DDIVSKAVFDFVE [L7A]	-0.129
DDIVSKLVFAFVE [D10A]	0.303
DDAVSKLVFDFVE [I3A]	0.333
DDIVSKLAFDFVE [V8A]	0.119

Study 3
Target: PABPC1L2, full length, GST fusion (mouse, UniProt A0ABA7IW68)
Method: RNAcompete
Form: RNA
Medium: in vitro
Tested at: 20 nM
Notes: 7-mer, probes averaged, single round
Reference: mean of 7-mers
Reading: higher = stronger binding
Target sequence (chain): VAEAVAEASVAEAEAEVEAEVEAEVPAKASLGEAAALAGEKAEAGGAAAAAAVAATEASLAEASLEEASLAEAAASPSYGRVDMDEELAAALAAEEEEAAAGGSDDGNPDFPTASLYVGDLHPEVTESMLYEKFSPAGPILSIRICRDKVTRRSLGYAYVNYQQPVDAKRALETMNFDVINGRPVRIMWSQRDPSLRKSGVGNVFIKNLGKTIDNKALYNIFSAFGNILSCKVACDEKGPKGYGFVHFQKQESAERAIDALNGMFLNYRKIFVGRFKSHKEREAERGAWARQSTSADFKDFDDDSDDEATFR
Strand	7-mer Z-score
GUCUGGA	-0.151
AUUACGA	0.0297
AGUCCCG	-0.275
UCCUGAU	-0.338
GGAGUUA	-0.0844
CGGAUUC	-0.313
ACGUCCC	-0.331
GAUGGGC	0.0406
GGACACG	0.1
UGCUCAU	-0.322
UUUGGGU	-0.389
CAGGCAG	0.216
GGAGGUU	0.0714

Single results of other studies
Molecule	target	assay	system	conditions	scale	quantity	value
PhoQ, residues 284 288 289 292 302 303 SVTLVV	PhoP, residues 12 14 15 18 19 TTLRV (Escherichia coli, UniProt P23836)	Sort-seq, item: YFP reporter	E. coli	PhoQ-PhoP variant library, added: 10 µM Mg2+	reference: high Mg2+ state, higher = stronger signaling	fold induction	2.22

For quick reference, copied from above (study 1):
Modification	mean fluorescence intensity
2'F-ANA at 1 2 4 5 6 7 9 11	53.5 a.u.
2'F-ANA at 3 5 6 7 10 12 14 15	53.2 a.u.
